Experimental data of several laboratories.
Numbered parts are unrelated; each lists some results of a single study.
UniProt P08913, sequence (whole entry, looked up): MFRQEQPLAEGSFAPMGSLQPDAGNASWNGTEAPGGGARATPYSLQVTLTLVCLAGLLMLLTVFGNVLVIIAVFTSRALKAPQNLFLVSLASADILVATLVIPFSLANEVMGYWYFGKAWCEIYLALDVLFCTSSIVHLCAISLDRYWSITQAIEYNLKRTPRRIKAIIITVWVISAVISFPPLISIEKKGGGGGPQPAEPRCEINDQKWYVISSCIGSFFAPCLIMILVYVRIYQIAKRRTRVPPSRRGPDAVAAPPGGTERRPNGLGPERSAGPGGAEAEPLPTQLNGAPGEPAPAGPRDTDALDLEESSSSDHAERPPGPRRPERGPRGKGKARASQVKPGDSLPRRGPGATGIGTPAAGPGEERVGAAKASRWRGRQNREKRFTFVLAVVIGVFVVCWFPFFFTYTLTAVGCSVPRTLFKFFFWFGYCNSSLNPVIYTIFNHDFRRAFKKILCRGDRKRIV
UniProt P21917, sequence (whole entry, looked up): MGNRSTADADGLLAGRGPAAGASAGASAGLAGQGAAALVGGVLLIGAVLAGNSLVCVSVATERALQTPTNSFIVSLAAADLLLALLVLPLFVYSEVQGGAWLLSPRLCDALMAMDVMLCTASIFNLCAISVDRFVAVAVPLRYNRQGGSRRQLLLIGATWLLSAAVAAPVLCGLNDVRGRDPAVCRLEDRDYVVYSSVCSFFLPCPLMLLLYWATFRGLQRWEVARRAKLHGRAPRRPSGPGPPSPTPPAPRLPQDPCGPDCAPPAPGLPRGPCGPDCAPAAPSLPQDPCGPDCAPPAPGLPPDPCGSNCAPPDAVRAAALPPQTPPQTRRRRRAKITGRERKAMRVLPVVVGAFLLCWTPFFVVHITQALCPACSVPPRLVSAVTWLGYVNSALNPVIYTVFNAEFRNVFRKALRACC
UniProt P08588, sequence (whole entry, looked up): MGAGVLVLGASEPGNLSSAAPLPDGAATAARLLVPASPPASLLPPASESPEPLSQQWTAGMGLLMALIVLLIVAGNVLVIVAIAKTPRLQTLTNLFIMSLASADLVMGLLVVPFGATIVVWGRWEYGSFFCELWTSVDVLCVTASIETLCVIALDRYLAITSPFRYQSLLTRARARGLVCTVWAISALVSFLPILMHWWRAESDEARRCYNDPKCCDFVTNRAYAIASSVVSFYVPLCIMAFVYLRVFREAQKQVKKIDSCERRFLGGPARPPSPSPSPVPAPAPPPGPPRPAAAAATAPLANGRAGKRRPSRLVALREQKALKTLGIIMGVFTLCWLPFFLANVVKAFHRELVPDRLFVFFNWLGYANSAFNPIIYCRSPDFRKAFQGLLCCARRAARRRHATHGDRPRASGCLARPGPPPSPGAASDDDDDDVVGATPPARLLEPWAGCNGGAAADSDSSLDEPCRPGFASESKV
UniProt P28566, sequence (whole entry, looked up): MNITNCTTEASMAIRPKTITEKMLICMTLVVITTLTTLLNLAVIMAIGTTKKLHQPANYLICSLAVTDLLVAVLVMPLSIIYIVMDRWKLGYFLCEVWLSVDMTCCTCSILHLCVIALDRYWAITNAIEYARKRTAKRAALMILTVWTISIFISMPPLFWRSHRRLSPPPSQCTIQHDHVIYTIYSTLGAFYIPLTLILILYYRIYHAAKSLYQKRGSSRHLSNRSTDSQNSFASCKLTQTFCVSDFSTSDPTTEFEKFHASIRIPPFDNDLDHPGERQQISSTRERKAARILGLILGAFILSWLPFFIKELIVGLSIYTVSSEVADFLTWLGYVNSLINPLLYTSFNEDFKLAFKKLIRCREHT
UniProt P50406, sequence (whole entry, looked up): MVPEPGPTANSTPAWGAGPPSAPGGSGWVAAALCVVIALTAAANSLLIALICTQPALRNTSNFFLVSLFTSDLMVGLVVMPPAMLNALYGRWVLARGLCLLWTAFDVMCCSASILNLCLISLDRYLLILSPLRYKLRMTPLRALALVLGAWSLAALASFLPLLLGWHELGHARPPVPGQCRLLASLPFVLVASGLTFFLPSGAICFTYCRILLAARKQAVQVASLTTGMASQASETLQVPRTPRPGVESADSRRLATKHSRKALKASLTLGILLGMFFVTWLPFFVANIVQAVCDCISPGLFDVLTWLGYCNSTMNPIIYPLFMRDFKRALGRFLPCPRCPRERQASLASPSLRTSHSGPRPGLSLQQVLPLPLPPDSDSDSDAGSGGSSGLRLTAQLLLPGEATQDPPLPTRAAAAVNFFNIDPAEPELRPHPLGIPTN
UniProt P47898, sequence (whole entry, looked up): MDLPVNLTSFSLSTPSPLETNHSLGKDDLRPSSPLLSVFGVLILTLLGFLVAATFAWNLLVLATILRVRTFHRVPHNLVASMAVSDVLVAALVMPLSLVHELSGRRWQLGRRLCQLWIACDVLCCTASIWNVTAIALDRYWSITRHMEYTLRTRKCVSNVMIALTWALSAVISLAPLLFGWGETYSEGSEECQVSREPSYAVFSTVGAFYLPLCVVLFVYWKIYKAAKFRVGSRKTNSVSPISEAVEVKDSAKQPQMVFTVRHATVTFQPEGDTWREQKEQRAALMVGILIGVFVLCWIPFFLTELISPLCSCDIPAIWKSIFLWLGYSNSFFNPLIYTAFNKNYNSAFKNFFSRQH

Block 1
Structure (SMILES): N#CN1CC[C@@H](C(=O)Nc2nc3c(s2)CN(C(=O)CN=[N+]=[N-])CC3)C1
Concentration: 10 µM
For 5-hydroxytryptamine receptor 6 (HTR6, Homo sapiens, UniProt P50406); binding, radioligand binding: inhibition read 8.14%.
It gave 3.17% for inhibition (Beta-1 adrenergic receptor (ADRB1, Homo sapiens, UniProt P08588); binding, radioligand binding).
D(4) dopamine receptor (DRD4, Homo sapiens, UniProt P21917); binding, radioligand binding — inhibition: 5.53%.
5-hydroxytryptamine receptor 1E (HTR1E, Homo sapiens, UniProt P28566); cell-free assay — inhibition: 6.5%.
Alpha-2A adrenergic receptor (ADRA2A, Homo sapiens, UniProt P08913); binding, radioligand binding — inhibition: 50.7%.
The inhibition was 9.64% (5-hydroxytryptamine receptor 5A (HTR5A, Homo sapiens, UniProt P47898); cell-free assay).

Block 2
Target: MAP kinase-activated protein kinase 3 (MAPKAPK3, Homo sapiens, UniProt Q16644)
UniProt Q16644, sequence (whole entry, looked up): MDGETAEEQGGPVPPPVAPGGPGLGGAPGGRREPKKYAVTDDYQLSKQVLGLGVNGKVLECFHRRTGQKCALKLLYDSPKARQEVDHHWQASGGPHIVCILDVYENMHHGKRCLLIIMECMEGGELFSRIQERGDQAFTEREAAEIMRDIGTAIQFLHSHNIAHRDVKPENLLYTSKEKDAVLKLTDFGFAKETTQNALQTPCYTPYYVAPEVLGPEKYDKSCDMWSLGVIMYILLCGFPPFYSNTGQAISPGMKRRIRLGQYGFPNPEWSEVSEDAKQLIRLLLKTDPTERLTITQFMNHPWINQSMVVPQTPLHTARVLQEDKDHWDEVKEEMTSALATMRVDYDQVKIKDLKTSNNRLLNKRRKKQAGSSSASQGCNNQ
Observed: enzyme activity
Mode: inhibitor
Concentration: 0.5 µM
Reference: control
With CNC(=O)c1cc(Oc2ccc(NC(=O)Nc3ccc(Cl)c(C(F)(F)F)c3)cc2)ccn1 the remaining activity was 100%.
CO[C@H]1C[C@@H]2CC[C@@H](C)[C@@](O)(O2)C(=O)C(=O)N2CCCC[C@H]2C(=O)O[C@H]([C@H](C)C[C@@H]2CC[C@@H](O)[C@H](OC)C2)CC(=O)[C@H](C)/C=C(\C)[C@@H](O)[C@@H](OC)C(=O)[C@H](C)C[C@H](C)/C=C/C=C/C=C/1C has a remaining activity of 90.9%.
Cn1c2ccccc2c2c3c(c4c5ccccc5n(CCC#N)c4c21)CNC3=O has a remaining activity of 83.7%.
C#Cc1cccc(Nc2ncnc3cc(OCCOC)c(OCCOC)cc23)c1 gave a remaining activity of 98.1%.
COc1ccc(CNC(=O)Nc2ncc([N+](=O)[O-])s2)cc1 gave a remaining activity of 103%.
For Cc1ccc(NC(=O)c2ccc(CN3CCN(C)CC3)cc2)cc1Nc1nc(-c2cccnc2)cs1, the remaining activity was 97.9%.
With Nc1[nH]nc2nc3ccccc3nc12 the remaining activity was 101%.
For Cc1cccc(-c2[nH]c(C(C)(C)C)nc2-c2ccc3c(c2)OCO3)n1, the remaining activity was 94.1%.
For CN(C)c1ccc(C=C2C(=O)Nc3ccccc32)cc1, the remaining activity was 100%.
For O=S(=O)(c1cccc2cnccc12)N1CCCNCC1, the remaining activity was 99.7%.
For COc1cc2nccc(Oc3ccc(NC(=S)NC(=O)c4ccccc4C)cc3)c2cc1OC, the remaining activity was 102%.
N#CC(C#N)=C(N)/C(C#N)=C/c1ccc(O)cc1 has a remaining activity of 99.9%.

Block 3
Target: RNA binding protein fox-1 homolog 2, RRM domain, GST-SBP tag (RBFOX2, Homo sapiens, UniProt O43251-10, residues 100-194)
Technique: RNA Bind-n-Seq
Molecule type: RNA
Medium: in vitro
Concentration: 365 nM
Notes: natural RNA segment, single round, ends assumed
Reference: no-protein control
Reading: higher = stronger binding
All sequences stand within: GGGAGUUCUACAGUCCGACGAUC … UGGAAUUCUCGGGUGCCAA
Target sequence (chain): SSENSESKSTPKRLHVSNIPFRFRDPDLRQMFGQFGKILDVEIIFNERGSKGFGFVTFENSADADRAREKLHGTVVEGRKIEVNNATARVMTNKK
For `UAUAACGUAUCAUGGCAACCAGAGCUUCCCAUAUUAUUGACAAGUAGGGAUCAUUAGGUUCUGGUUUGAACAUUCUGAAUGUGAACAAAAUGAAAUAGUAGUUAAGAGGU`, “RBNS enrichment (R)” read 0.573.
`AGAGGAGACAGUCUAUCACUCCCCCUAGACCAGGCGCUUUGCGGUGACAGCUGGAGCUAUAUGGAUGGGUGAUGAGAGACGUUCCCCCAUCCUGUGUCUCCUGCUGUGUG`: “RBNS enrichment (R)” 0.496.
`UGAGCGACAUAGCCAGUCCGCCUCUGGUCAUGGCAGAACUGAUGCUGGACUUUGGUAUCUGAGGCAGAGGUGAACUGCAGGCCAGUGGCUCCUCUUGGGGAAAUUGUGUA`: “RBNS enrichment (R)” 0.622.
`UGUUCUGUGUUCAAGCUCCUGUGGGCAACUCAAUUGUUUUAAGAAAACUCUAUUUCUGUUCAUAUUAAUUCACUUGCCAGACUCCAAUUCUGAAAGUUGUCUAGUUCUUC` — result for “RBNS enrichment (R)”: 0.354.
`UACCUCUGAUUGCAUCACUAGGACUAACUACAAGCUGGCUGGGGAUACUCCCUUGUGUGUUCUGUCCUAUCCAGAUGGCCUGCUAGAUUGAAUUAUACUCACCAACACAU` — result for “RBNS enrichment (R)”: 0.948.
Under “RBNS enrichment (R)”, `CUAGAAAGGGGCAACACAGGGUACUACUUGAACUUUCCUAUCACAGCUCCCAUGCCACAGAGGGACAGACCCCUGCUGUCCUGCCCUCUUGCCACUGGUGAGAGAAGGCC` is recorded as 0.333.
Under “RBNS enrichment (R)”, `GAUUAUUUACUUUGUUUAUUGUCUAUAUGCCUUUUAAAAAAAUAAACUUGUUAUGCAAAAUAAAACAUUUGGGUAAGUUGUUUUAGUAUCAUAGCCAAGUGGCCAGAUCU` is recorded as 0.682.
For `UUCAAGAACCAGACAACAGGAUGCCUUAGAAGCUGGCUGGGUUUUGGGUCAGGGGCUCAGUAUGAGAAGAAGAAAUAUGAACAGCAAAUAAAACAUUUUUGUAUAAGCUC`, “RBNS enrichment (R)” read 2.68.

Block 4
Target: Krueppel-like factor 3, full length (KLF3, Homo sapiens, UniProt P57682, residues 1-345)
UniProt P57682, sequence (whole entry, looked up): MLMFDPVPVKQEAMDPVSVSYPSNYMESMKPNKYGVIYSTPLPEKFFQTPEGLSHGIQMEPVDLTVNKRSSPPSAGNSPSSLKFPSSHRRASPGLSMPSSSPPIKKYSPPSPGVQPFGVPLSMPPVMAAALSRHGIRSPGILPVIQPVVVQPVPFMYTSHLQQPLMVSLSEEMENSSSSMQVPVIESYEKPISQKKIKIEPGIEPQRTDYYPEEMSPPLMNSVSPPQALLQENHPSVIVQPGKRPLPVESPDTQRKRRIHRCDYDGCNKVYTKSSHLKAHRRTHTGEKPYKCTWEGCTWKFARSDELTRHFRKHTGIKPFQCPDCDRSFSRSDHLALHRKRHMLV
Technique: protein-binding microarray
Molecule type: hairpin DNA
Medium: in vitro
Concentration: not given
Notes: whole hairpin DNA, median over replicate spots
Reference: not given
Reading: higher = stronger binding
`GAGGCCGACCAGGCCCAGCCTCCTGGCTGGGCCTGGTCGGCCTCACACTC` has a median fluorescence of 7770 a.u.
The median fluorescence of `GAGGCCGACGGCGCCCAGCCTCCTGGCTGGGCGCCGTCGGCCTCACACTC` is reported as 8610 a.u.
With `GAGGCCGACCGCGCCCCGCCTCCTGGCGGGGCGCGGTCGGCCTCACACTC (5mC at 17)` the median fluorescence was 9450 a.u.
`GAGGCCGCGCACGCCCAGCCTCCTGGCTGGGCGTGCGCGGCCTCACACTC (5mC at 8 36)` has a median fluorescence of 9370 a.u.
With `GAGGCCGACCGAGCCCAGCCTCCTGGCTGGGCTCGGTCGGCCTCACACTC` the median fluorescence was 8020 a.u.
With `GAGGCCGACCACGCCCAGCCTCCTGGCTGGGCGTGGTCGGCCTCACACTC (5mC at 12)` the median fluorescence was 9210 a.u.
With `GAGGCCCGCCACGCCCAGCCTCCTGGCTGGGCGTGGCGGGCCTCACACTC` the median fluorescence was 9190 a.u.
For `GAGGCCGACCGCGCCCAGCCTCCTGGCTGGGCGCGGTCGGCCTCACACTC (5mC at 15)`, the median fluorescence was 8620 a.u.
